Assay results collected from several papers.
Lines come from different studies, so protocols differ. ± marks the error that the study gave.
USP20 ZnF-UBD domain: Ubiquitin carboxyl-terminal hydrolase 20, ZnF-UBD domain (USP20, Homo sapiens, UniProt Q9Y2K6)
Sequence of UniProt Q9Y2K6 (whole entry, looked up): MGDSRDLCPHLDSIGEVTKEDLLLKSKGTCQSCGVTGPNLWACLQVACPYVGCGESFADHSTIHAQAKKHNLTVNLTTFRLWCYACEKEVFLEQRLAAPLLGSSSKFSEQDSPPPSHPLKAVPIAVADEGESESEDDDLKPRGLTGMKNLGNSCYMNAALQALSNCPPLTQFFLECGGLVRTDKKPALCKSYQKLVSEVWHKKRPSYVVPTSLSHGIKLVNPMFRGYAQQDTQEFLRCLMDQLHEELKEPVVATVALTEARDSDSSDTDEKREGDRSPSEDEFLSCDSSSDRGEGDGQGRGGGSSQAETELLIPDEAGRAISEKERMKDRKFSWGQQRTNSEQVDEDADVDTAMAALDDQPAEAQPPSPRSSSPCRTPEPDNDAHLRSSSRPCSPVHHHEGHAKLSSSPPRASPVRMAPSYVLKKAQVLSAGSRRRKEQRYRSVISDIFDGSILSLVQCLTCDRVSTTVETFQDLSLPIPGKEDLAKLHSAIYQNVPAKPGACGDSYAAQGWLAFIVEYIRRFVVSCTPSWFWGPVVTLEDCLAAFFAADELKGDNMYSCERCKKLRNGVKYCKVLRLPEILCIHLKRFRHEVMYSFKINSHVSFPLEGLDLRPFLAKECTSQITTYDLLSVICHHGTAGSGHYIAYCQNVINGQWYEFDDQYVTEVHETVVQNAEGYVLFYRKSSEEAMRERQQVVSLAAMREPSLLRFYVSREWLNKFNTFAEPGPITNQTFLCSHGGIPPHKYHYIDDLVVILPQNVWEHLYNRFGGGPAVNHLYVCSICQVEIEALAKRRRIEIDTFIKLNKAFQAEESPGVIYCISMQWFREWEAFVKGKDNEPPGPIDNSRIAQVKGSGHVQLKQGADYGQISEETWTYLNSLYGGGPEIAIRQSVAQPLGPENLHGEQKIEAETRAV
Sequence of UniProt Q9UNQ0 (whole entry, looked up): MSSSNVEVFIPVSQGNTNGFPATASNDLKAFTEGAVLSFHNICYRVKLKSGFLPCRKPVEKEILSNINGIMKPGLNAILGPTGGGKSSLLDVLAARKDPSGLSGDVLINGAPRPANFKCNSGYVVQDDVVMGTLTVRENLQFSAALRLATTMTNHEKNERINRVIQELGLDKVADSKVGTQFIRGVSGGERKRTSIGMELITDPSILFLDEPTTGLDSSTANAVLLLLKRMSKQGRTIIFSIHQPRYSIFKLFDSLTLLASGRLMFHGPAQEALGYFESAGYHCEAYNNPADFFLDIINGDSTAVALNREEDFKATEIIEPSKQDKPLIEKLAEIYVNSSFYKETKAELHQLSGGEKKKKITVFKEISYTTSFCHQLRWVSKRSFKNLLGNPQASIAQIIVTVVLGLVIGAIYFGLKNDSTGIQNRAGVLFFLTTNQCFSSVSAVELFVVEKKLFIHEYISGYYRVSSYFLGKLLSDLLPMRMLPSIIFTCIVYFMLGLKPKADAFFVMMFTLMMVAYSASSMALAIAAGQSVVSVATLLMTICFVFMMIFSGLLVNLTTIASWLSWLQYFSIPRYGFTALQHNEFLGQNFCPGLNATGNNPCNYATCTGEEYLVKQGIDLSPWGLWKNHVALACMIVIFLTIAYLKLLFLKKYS

Structure (SMILES) = CN(C(=O)C(C)(C)c1cc(C(F)(F)F)cc(C(F)(F)F)c1)c1cnc(N2C[C@H]3COCCN3C[C@H]2CO)cc1-c1ccc(F)cc1[14CH3]; system = pooled human liver microsomes; setting = pH 7.4, substrate depletion; endpoint = Km; result = 0.206 µM
Structure (SMILES) = CC(=O)N(C)[C@H]1CCN(C(=O)c2cnc3c(c2)C[C@](C)(c2ccc(F)cc2)N3)C1; test = measured: muscle damage; system = human; setting = oral, 15 mg once daily; endpoint = adverse event duration; result = 10 days
Structure (SMILES) = Cc1cc(C(=O)NC(C)(C)COc2cccc3c2C(N)=NS(=O)(=O)N3)cc(C)n1; tested on = human peripheral blood lymphocytes; test = CBPI, preliminary test; setting = 0.2 µg/mL, 4 h; how to read = baseline: vehicle control; endpoint = cytotoxicity; result = 3%
Structure (SMILES) = CN(CCC(=O)O)C(=O)c1ccc2c(c1)CC[C@@H]1[C@@H]2CC[C@]2(C)C(c3cncc(F)c3)=CC[C@@H]12; system = premenopausal women with endometriosis pain, serum; setting = 60 mg twice daily, end of treatment, completers, median; how to read = baseline: baseline; endpoint = direct bilirubin change; result = 0.15 mg/dL
Structure (SMILES) = CCCCOC(=O)N1CCN(C(=O)[C@H](CP(=O)(O)O)NC(=O)c2cc(N3CC[C@H](OC)C3)nc(-c3ccccc3)n2)CC1; test = measured: aspartate aminotransferase; system = human, serum; setting = 16 mg, 24 h post-dose; endpoint = change from baseline; result = -0.9 ± 4.6 U/L
Structure (SMILES) = O=C(c1cc(-c2ccc3c(c2)OCCO3)nc2ccccc12)N1CCC(Cc2ccccc2)CC1; test = dynamic light scattering; system = buffer; setting = 20 µM; endpoint = hydrodynamic radius; result = 4.45 nm
Structure (SMILES) = FC(F)(F)c1ccc(CNc2ccc(Cc3c[nH]c4ncc(Cl)cc34)cn2)cn1; test = measured: Nausea; system = patients with advanced solid tumours; setting = oral, dose not given, all grades, possibly related to drug; endpoint = adverse event incidence; result = 35%
Structure (SMILES) = CC(C)C[C@H](NC(=O)C[C@H](O)[C@H](CC(C)C)NC(=O)[C@H](Cc1c[nH]cn1)NC(=O)CNC(=O)[C@@H](NC(=O)[C@H](C)NC(=O)[C@H](Cc1c[nH]c2ccccc12)NC(=O)[C@H](CCC(N)=O)NC(=O)[C@@H](Cc1ccccc1)NC(=O)COCCOCCNC(=O)CCC(C(=O)O)N1CCN(CC(=O)O)CCN(CC(=O)O)CCN(CC(=O)O)CC1)C(C)C)C(N)=O (stereo partly drawn) [lutetium-177 labelled]; system = female BALB/c nu/nu mice, spleen; setting = intravenous, 50 pmol, 24 h; endpoint = tissue uptake; result = 0.05 %ID/g
Structure (SMILES) = Fc1ccc([C@@H]2COC[C@]3(CC[C@H](c4ccccc4)CC3)N2)c(Cl)c1; test = shake-flask, 1-octanol/buffer; setting = pH 7.4; endpoint = logD; result = > 4.7
Structure (SMILES) = OC[C@H]1O[C@@H](c2ccc(Cl)c(Cc3ccc(O[C@H]4CCOC4)cc3)c2)[C@H](O)[C@@H](O)[C@@H]1O; system = Japanese type 1 diabetes patients, blood; setting = 10 mg, day 28; how to read = baseline: baseline; endpoint = change in Magnesium; result = 0.1 mEq/L
Structure (SMILES) = O=C(O)CCn1cccn1; tested on = USP20 ZnF-UBD domain; endpoint = Kd; result = 182 µM
Structure (SMILES) = C/C=C/C[C@@H](C)C(=O)[C@H]1C(=O)N[C@@H](C(C)C)C(=O)N(C)CC(=O)N(C)[C@@H](CC(C)C)C(=O)N[C@@H](C(C)C)C(=O)N(C)[C@@H](CC(C)C)C(=O)N[C@@H](C)C(=O)N[C@H](C)C(=O)N(C)[C@@H](CC(C)C)C(=O)N(C)[C@@H](CC(C)C)C(=O)N(C)[C@@H](C(C)C)C(=O)N1C; system = Sprague Dawley rat, plasma; setting = intravenous infusion, 0.29 mg/h/kg, 4 h, 4.5 h constant infusion; endpoint = total plasma concentration; result = 889 ng/mL
Structure (SMILES) = N#Cc1ccc2c(c1)[C@H]1CCCN(C(=O)c3ccc4[nH]cnc4c3)[C@H]1C2; system = human, female; setting = 240 mg, end of trial; endpoint = DHEA-S level; result = 3.5 µmol/L
Structure (SMILES) = CC(C)(C(=O)N1CCOc2c(C#N)cncc2C1)C(F)F; test = measured: skin abrasion; system = human; setting = oral, 20 mg once daily, 14 days, multiple ascending dose; endpoint = subjects with adverse event; result = 0%
Structure (SMILES) = Cc1ccc([C@@H]2O[C@H](CO)[C@@H](O)[C@H](O)[C@H]2O)cc1Cc1ccc(-c2ccc(F)cc2)s1; system = Japanese type 2 diabetes patients; setting = 400 mg, day 3, 24 h urine collection; how to read = baseline: baseline; endpoint = urinary sodium excretion change; result = 16.2 mEq
Structure (SMILES) = CC[C@]1(O)C[C@H]2CN(CCc3c([nH]c4ccccc34)[C@@](C(=O)OC)(c3cc4c(cc3OC)N(C=O)[C@H]3[C@@](O)(C(=O)OC)[C@H](OC(C)=O)[C@]5(CC)C=CCN6CC[C@]43[C@@H]65)C2)C1; tested on = CHP-212 resistant subline R2 (heterozygous USP7 V517F); test = cell viability; setting = 4.572 nM; endpoint = viability; result = 81.9%
Structure (SMILES) = CC(C)C[C@H](NC(=O)[C@@H](Cc1c[nH]c2ccccc12)NC(=O)[C@H](Cc1ccc(O)cc1)NC(=O)[C@H](CO)NC(=O)[C@H](Cc1c[nH]c2ccccc12)NC(=O)[C@H](Cc1c[nH]cn1)NC(=O)[C@@H]1CCC(=O)N1)C(=O)N[C@@H](CCCNC(=N)N)C(=O)N1CCC[C@H]1C(=O)NCC(N)=O; system = Chinese CPP children, overall; setting = intramuscular, 22.5 mg, 12 months, day 1, month 6; endpoint = patients, drug-related laboratory TEAEs; result = 13.6%
Structure (SMILES) = CN1CCCC1CCNS(=O)(=O)c1ccc2c(c1)CN(CC1CCCCC1)CC2 (stereo not drawn); system = wild-type mouse, pons/cerebellum; setting = oral in diet, 0.002% in diet, 6 months; endpoint = Cmin; result = 11.1 ng/g
Structure (SMILES) = CC[C@H](CO)N(CCN(N=O)[C@H](CC)CO)N=O; tested on = Salmonella typhimurium; test = mutagenicity, Ames plate incorporation; system = TA98; setting = 500 µg/plate, without S9, methanol; endpoint = revertant colonies per plate; result = 26 ± 10
Structure (SMILES) = c1csc(CNc2cc[nH]n2)c1; tested on = human peripheral blood lymphocytes; setting = 1130 µg/mL, 4 h; endpoint = numerical aberration cells; result = 0.5%
Structure (SMILES) = NC1(C(=O)N[C@@H](CCO)c2ccc(Cl)cc2)CCN(c2nc[nH]c3nccc2-3)CC1; system = human patients aged >=sample A years; setting = 400 mg; endpoint = likelihood of AE-led dose modification; result = 58.7%
Structure (SMILES) = C[C@]12CCCN1CC1=NNC(=O)c3cc(F)cc4[nH]c2c1c34; tested on = ABCG2 (Homo sapiens, UniProt Q9UNQ0); test = substrate; system = membrane vesicles; setting = 30 µM, added: AMP; endpoint = uptake rate; result = 8.91 ± 3.22 pmol/min/mg
Structure (SMILES) = O=C(O)CNC(=O)c1ccc(S(=O)(=O)N2CCC(n3c(=O)oc4ccccc43)CC2)cc1; tested on = USP20 ZnF-UBD domain; endpoint = Kd; result = > 1000 µM
Structure (SMILES) = Cc1cc(Nc2ccc(S(F)(F)(F)(F)F)cc2)n2nc(C(C)(F)F)nc2n1; system = Plasmodium vivax malaria patients; setting = oral, 800 mg; endpoint = adverse event Thrombocytopenia; result = 0%

A few entries again:
Structure (SMILES) = CC(C)C[C@H](NC(=O)C[C@H](O)[C@H](CC(C)C)NC(=O)[C@H](Cc1c[nH]cn1)NC(=O)CNC(=O)[C@@H](NC(=O)[C@H](C)NC(=O)[C@H](Cc1c[nH]c2ccccc12)NC(=O)[C@H](CCC(N)=O)NC(=O)[C@@H](Cc1ccccc1)NC(=O)COCCOCCNC(=O)CCC(C(=O)O)N1CCN(CC(=O)O)CCN(CC(=O)O)CCN(CC(=O)O)CC1)C(C)C)C(N)=O (stereo partly drawn) [lutetium-177 labelled]; system = female BALB/c nu/nu mice, spleen; setting = intravenous, 50 pmol, 24 h; endpoint = tissue uptake; result = 0.05 %ID/g
Structure (SMILES) = CC[C@]1(O)C[C@H]2CN(CCc3c([nH]c4ccccc34)[C@@](C(=O)OC)(c3cc4c(cc3OC)N(C=O)[C@H]3[C@@](O)(C(=O)OC)[C@H](OC(C)=O)[C@]5(CC)C=CCN6CC[C@]43[C@@H]65)C2)C1; tested on = CHP-212 resistant subline R2 (heterozygous USP7 V517F); test = cell viability; setting = 4.572 nM; endpoint = viability; result = 81.9%
Structure (SMILES) = CN(CCC(=O)O)C(=O)c1ccc2c(c1)CC[C@@H]1[C@@H]2CC[C@]2(C)C(c3cncc(F)c3)=CC[C@@H]12; system = premenopausal women with endometriosis pain, serum; setting = 60 mg twice daily, end of treatment, completers, median; how to read = baseline: baseline; endpoint = direct bilirubin change; result = 0.15 mg/dL
